# Assay results collected from several papers.
# Every numbered part comes from another study and shows a few of its results, in no order.

# Sample 1
# Target: Fragile X messenger ribonucleoprotein 1, C-terminal low-complexity region (Fmr1, Mus musculus, UniProt P35922)
# Technique: RNA Bind-n-Seq
# Molecule type: RNA
# Sample: in vitro
# Concentration: 200 nM
# Setting: whole 134-nt RNA, ends assumed
# Added: 150 mM LiCl
# Reference: input library
# Direction: higher = stronger binding
# Each molecule: 7-deaza-guanosine replaces G
Strand,log2 enrichment
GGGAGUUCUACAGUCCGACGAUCGCAGGAAGUAAAAACAAAUGGAAAUGCUUCGGAUAGUGGCAGGGGGGGGGGUUGCUAAGGAAAGGGUGGGAUGGGAGUGGGUAAAGAGUUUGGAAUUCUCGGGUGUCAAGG,1.6
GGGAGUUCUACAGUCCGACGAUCUCCUCAAGUCCUGUGCUACACAUCGUAUGUACCGAAUCGGAGGAGGGAGGGGAAAGUAUUAUGUUACGCCGUUCGGAUCUGCACUUCCAGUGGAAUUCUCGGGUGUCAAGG,-0.994
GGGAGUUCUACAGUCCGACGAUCCAAGUCCUGUGCUACACAUCGUAUGUACCGAAUCGGUUUUGGGUUUUGGUUUUGGAAAGUAUUAUGUUACGCCGUUCGGAUCUGCACUUCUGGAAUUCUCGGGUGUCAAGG,-1.47
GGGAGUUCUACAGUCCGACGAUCUGGCCCGCCGUCCUGAGGAAGCUGAGGUUCACUGCGGUGCCCAAGAACCACCAGGCGGUCCGGAACCCGUGAGCGGCUGCCAGGGGCUCUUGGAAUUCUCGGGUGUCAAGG,-0.0683
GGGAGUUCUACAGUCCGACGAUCGUCCUGUGCUACACAUCGUAUGUACCGAAUCGGAAAAAAAGGUUUUUGGUUUUUUUGGAAAGUAUUAUGUUACGCCGUUCGGAUCUGCACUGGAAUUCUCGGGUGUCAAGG,-2.72
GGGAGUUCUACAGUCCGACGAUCAGUCCUGUGCUACACAUCGUAUGUACCGAAUCAAACCCAAAUUUUUUUAAAUUUAAAAAAGUAUUAUGUUACGCCGUUCGGAUCUGCACUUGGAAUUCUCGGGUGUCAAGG,-1.85
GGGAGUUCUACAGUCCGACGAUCACCAUGCAGAAAGGCAUCUUUGGGAAGUGGGGCAAGGGGGGGAUAGGGAGGGGGGUAACACUUUGGGAACAGGUGGUCCCAGGUCGUUUCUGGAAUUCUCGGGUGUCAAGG,1.23
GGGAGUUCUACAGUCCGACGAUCUGGCCCUGGUGGCAUGCGGGGAGGAAGAGGUGGCCUCAUGGAUCGUGGUGGUCCCGGUGGAAUGUUCAGAGGUGGCCGUGGUGGAGACAGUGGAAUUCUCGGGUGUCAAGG,-0.675
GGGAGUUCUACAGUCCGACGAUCCCUGUGCUACACAUCGUAUGUACCGAAUCGGGGUUUUUUUGGGGUGGGGUUUUUUUGGGGAAAGUAUUAUGUUACGCCGUUCGGAUCUGCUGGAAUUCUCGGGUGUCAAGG,-1.34
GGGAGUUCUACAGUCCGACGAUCGUCCUGUGCUACACAUCGUAUGUACCGAAUCAAACCCCCAAACCCAAACCCCCCCAAAAAAGUAUUAUGUUACGCCGUUCGGAUCUGCACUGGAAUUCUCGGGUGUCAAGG,0.781
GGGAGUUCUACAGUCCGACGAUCCCUGUGCUACACAUCGUAUGUACCGAAUCGGGGUUUGGGGAAAAAAAGGGGUUUUUGGGGAAAGUAUUAUGUUACGCCGUUCGGAUCUGCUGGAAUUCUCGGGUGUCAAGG,-0.685

# Sample 2
# Target: Interferon regulatory factor 5, full length, phosphomimetic (IRF5, Homo sapiens, UniProt Q13568-2, residues 1-514, K96S/S451D/S453D/S456D/S462D)
# Technique: protein-binding microarray
# Molecule type: double-stranded DNA, one strand shown
# Sample: in vitro
# Concentration: 250 nM
# Setting: 60-bp whole probe
# Added: salmon DNA 0.4 mg/ml
# Reference: random background probes
# Direction: higher = stronger binding
# All sequences stand within: GCCTAGCAC … GTCTTGATTCGCTTGACGCTGCTG
Strand,log fluorescence [z-score]
GACGGTTTCCTACCGCTGACGTGCTAG,0.0434
GACGATATCGGTATCGGGACGTGCTAG,4.8
TCAATTTTTTTTTTCTAACTGTGCTAG,1.04
GACGGACTGCGTCTCCTGACGTGCTAG,-0.832
CAGTTTATTTATTTTTACATGTGCTAG,1.06
TTAGGTCTCGGTATCGGATAGTGCTAG,1.78
TTAGATAACGGGACTGGATTAGTGCTA,-0.000758
TCATTTTATGCTTTCTTACTGTGCTAG,1.13
GACGGTCTCCGACTGCTGACGTGCTAG,-0.766
CGTCATTTCACAGTTAACCAGTGCTAG,0.911
AACGGACTGGGACTGGGGACGTGCTAG,-0.528
CCATTTTGTGTTTTCATTTTGTGCTAG,1.56
GCCGGACTGCTTCTCCTGACGTGCTAG,-0.657
GACGGTATCGAACTGGGGACGTGCTAG,0.584
TTAGGTATCGGGTATTGGTTAGTGCTA,4.02
TTAGGTTCGGGTTTCGGTTAGTGCTAG,7.94
TCATCATTGCCTATTTTTCAGTGCTAG,1.01
GACGGACTGGGCATCGGGACGTGCTAG,-0.703
TTAGGACTGGGTATCGGTGAGTGCTAG,1.81
TTAGATTTCGGGTATCGATCAGTGCTA,7.27
GACGGACTGGACTTTCGGTACGTGCTA,8.3
GACGGTTTCGGTTCCGAGACGTGCTAG,9.01
GACAATCTCAGTATCGAGACGTGCTAG,2.09
GACGGTTTCGGTTCCCGGACGTGCTAG,9.94

# Sample 3
# Target: RNA binding protein fox-1 homolog 2, RRM domain, GST-SBP tag (RBFOX2, Homo sapiens, UniProt O43251-10, residues 100-194)
# Technique: RNA Bind-n-Seq
# Molecule type: RNA
# Sample: in vitro
# Concentration: 365 nM
# Setting: natural RNA segment, single round, ends assumed
# Reference: no-protein control
# Direction: higher = stronger binding
# Target sequence (chain): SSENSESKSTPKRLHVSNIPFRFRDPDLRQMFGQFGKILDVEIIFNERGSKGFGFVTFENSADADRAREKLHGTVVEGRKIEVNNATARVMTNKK
Strand,RBNS enrichment (R)
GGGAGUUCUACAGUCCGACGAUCAUGGAACACUCAGUGCCGUAGCCCAGGAAGGACUUGCGGUUUCUGAUAGUUCUGAAGGCAUGAGCAAGGCUUCAGAAAUGAUCACCACGCUUGCAGUUGAAAGUGCCAGUUGGAAUUCUCGGGUGCCAA,0.519
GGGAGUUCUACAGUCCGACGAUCUUUGGAGACAGAAACAGGAGUUUCUCCAAAUCCAAUGAAAACAUGGAAAAUUCAAGGAUUGUUUAAAGGUCUGUGAUCAUCACAUACAAGAUGUAACUCUGGUUAUUUCAUGGAAUUCUCGGGUGCCAA,0.471
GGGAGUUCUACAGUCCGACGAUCCACCUCCCUGGACUACUAAGCUGGAGACCUACUGGCCACAUGUCUGAAAAAAUGUUCCCUGGCUAGUGUACUCCAUUCUCUUUCCUAGUGGCUCGGGCCAGACUUCAUCCUGGAAUUCUCGGGUGCCAA,0.396
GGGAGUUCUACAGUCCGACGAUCGGUAGUCCCAGCACUUGGAGAAGGCUGGAGGACCAGAAUUCAAGGCUAUCCUUGGCUACACAGUGAAUUUGAGACCAGCUUGGGCUCAUGAGACCCUGUCUCAAGGAAAAUGGAAUUCUCGGGUGCCAA,0.446
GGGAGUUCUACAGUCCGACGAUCUUUUAUGAUGGUUAGACUUCUGGACAUGGACUCAUCUUGUGAGAAGAUUUGAAUAAUGACCAAUUCUAAAAUCAAUAACGUUCCAUUUGCUUAUGUAGCACUUCUGGACCUGGAAUUCUCGGGUGCCAA,0.316
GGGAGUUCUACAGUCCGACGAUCGCUCUCUGUGGGGGAAGUGUCACAGUUGGUGGUGUCCCCUCUGUGUGGUGCAGUGUCUCUCUUUGUAGGGACUACAAGAAAUAACUUUGAAGGCAAGAAAGUCAUUAGCUUGGAAUUCUCGGGUGCCAA,0.558
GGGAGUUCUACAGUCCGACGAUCACCAUUUUUUUUACCUGAUUUUUGUUUUCAAAUAAGAAUGUAAGCAUUUUACUUAAAUUUUACUGUUUGCAAGUAGUCUAUAGAAAUUUUGUUUUAAGUCUUCAAAUAUCUGGAAUUCUCGGGUGCCAA,0.533
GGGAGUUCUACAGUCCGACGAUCGGACGUUGAAACUUCUGCUUUCGGAACAGCGUGUGUUGGAAAGCUUGUUUGAGAAUGGCUACUAGAGUUUAAGAGGCUAUGUAUGGAGUUUGUUGGGGAUGUAGUGAUGGUGGAAUUCUCGGGUGCCAA,50.2
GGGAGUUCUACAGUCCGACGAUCAUUUGUAUAGCAUUUUUACACCUUUAUUGAGUAAUCUGGUUUCGAAAGGAGGUGAGAGUUUAGUCCCUUCUGCAGUUUUCUCCAAGCUGUGUCCUGUGAAUUUCAACCCUUGGAAUUCUCGGGUGCCAA,0.565

# Sample 4
# Target: Sal-like protein 4, full length isoform A (SALL4, Homo sapiens, UniProt Q9UJQ4, residues 1-1053)
# Chain of UniProt Q9UJQ4 (whole entry, looked up): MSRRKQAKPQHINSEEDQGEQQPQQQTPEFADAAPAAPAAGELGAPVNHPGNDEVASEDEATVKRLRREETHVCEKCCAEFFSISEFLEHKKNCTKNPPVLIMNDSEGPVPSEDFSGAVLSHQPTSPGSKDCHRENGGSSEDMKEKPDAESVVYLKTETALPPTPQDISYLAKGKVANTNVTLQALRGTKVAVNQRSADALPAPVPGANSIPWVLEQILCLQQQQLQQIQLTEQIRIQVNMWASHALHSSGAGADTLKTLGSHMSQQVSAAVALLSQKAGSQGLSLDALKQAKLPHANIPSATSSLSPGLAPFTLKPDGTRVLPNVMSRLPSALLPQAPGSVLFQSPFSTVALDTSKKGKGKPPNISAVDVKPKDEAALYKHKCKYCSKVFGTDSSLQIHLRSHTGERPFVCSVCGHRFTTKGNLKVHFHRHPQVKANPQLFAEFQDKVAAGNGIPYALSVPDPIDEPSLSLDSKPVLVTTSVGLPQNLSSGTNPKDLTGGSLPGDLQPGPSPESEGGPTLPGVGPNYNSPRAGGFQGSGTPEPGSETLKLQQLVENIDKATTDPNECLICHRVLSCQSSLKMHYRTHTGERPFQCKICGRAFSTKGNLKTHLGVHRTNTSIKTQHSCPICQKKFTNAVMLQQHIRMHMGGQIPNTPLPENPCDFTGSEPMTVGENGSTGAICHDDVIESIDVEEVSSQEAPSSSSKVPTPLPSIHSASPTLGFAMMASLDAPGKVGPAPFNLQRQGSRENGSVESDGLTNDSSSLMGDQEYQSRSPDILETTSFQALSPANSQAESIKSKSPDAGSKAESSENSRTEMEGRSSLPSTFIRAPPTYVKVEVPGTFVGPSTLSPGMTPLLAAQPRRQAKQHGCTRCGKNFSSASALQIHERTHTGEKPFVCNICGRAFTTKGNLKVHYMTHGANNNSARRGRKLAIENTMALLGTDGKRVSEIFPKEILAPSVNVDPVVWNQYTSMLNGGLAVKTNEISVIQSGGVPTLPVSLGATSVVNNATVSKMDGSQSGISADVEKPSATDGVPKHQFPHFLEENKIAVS
# Technique: universal PBM
# Molecule type: double-stranded DNA, one strand shown
# Sample: in vitro
# Concentration: 600 nM
# Setting: 8-mer, flanks averaged, mean of replicates
# Direction: higher = stronger binding
Strand,E-score
CAAACTTG,0.0324
ACCTGCTG,-0.0112
AGTGGAGC,-0.125
AGTCGTTC,-0.0376
ACCCCGGA,-0.188
GCATTGCC,-0.119
TAGTAAGA,0.124
CTAAATCC,-0.0589
CAGTAAGA,0.13
AGCAAACT,0.091
ATCACTGC,-0.0232
ATTCAAAG,0.172
GCCTCTCC,-0.266
GGTGTTGA,-0.0856
ATCGGCAA,-0.0552
GGTGCCCA,-0.311
AGCGTACC,-0.25
CTTTTCGC,0.0212
ACACCGTG,-0.149
CATTAGCG,0.0297
GCAGCCCA,-0.196
ATAGTTGG,0.149
GTTGATCA,0.0285
ACCTCCTC,-0.122
GCTTCATA,0.0921
